# Results pooled from the literature.
# Lines come from different studies, so protocols differ.
Structure (SMILES),test,test system,setting,how to read,adverse event incidence [%]
O=C1CCc2ccc(OCCCCN3CCN(c4cccc(Cl)c4Cl)CC3)cc2N1,refers to: Akathisia,"patients, CYP2D6 ultrarapid metabolizers","dose not given, long-acting oral or depot",,13
CC(=O)O[C@H]1C(=O)[C@@]2(C)[C@H]([C@H](OC(=O)c3ccccc3)[C@]3(O)C[C@H](OC(=O)[C@H](O)[C@@H](NC(=O)c4ccccc4)c4ccccc4)C(C)=C1C3(C)C)[C@]1(OC(C)=O)CO[C@@H]1C[C@@H]2O,refers to: Pyrexia,patients with advanced solid tumours,"intravenous, dose not given, all grades, possibly related to drug",,13
NCCONC(=O)[C@@H]1CC[C@@H]2CN1C(=O)N2OS(=O)(=O)O,refers to: leading to withdrawal,healthy Chinese men,"intravenous, 2 g, treatment-emergent",,0
Cc1ccc(Sc2ccccc2N2CCNCC2)c(C)c1,any TEAE,healthy adult men,"oral, 20 mg single dose, 10 days",,16.7
CC[C@H](C)CCCCC(=O)N[C@@H](CCN)C(=O)N[C@H](C(=O)N[C@@H](CCN)C(=O)N[C@H]1CCNC(=O)[C@H]([C@@H](C)O)NC(=O)[C@H](CCN)NC(=O)[C@H](CCN)NC(=O)[C@H](CC(C)C)NC(=O)[C@@H](Cc2ccccc2)NC(=O)[C@H](CCN)NC1=O)[C@@H](C)O,refers to: infections and infestations,normal renal function,"intravenous, 0.75 mg/kg",,0
CC(C)n1c(Nc2cccnc2)nc2cnc(Nc3ccc(N4CCN(C)CC4)cc3)nc21,refers to: Hypertriglyceridaemia,healthy male subjects,"oral, 100 mg, added: gemfibrozil",,0
Cc1c(C(=O)O)ccc2c3n(nc12)[C@@H]1[C@H](C3)N(CC2CC2)[C@@]2(C(=O)Nc3cc(Cl)ccc32)[C@H]1c1cccc(Cl)c1F,"phase Ia trial, refers to: Constipation",cancer patients,"oral, dose not given",,24
CC[C@H](C)[C@H](NC(=O)[C@H](Cc1ccccc1)NC(=O)[C@H](CCC(=O)O)NC(=O)[C@H](CCCCNC(=O)COCCOCCNC(=O)COCCOCCNC(=O)CC[C@H](NC(=O)CCCCCCCCCCCCCCCCC(=O)O)C(=O)O)NC(=O)[C@H](C)NC(=O)[C@H](C)NC(=O)[C@H](CCC(N)=O)NC(=O)CNC(=O)[C@H](CCC(=O)O)NC(=O)[C@H](CC(C)C)NC(=O)[C@H](Cc1ccc(O)cc1)NC(=O)[C@H](CO)NC(=O)[C@H](CO)NC(=O)[C@@H](NC(=O)[C@H](CC(=O)O)NC(=O)[C@H](CO)NC(=O)[C@@H](NC(=O)[C@H](Cc1ccccc1)NC(=O)[C@@H](NC(=O)CNC(=O)[C@H](CCC(=O)O)NC(=O)C(C)(C)NC(=O)[C@@H](N)Cc1cnc[nH]1)[C@@H](C)O)[C@@H](C)O)C(C)C)C(=O)N[C@@H](C)C(=O)N[C@@H](Cc1c[nH]c2ccccc12)C(=O)N[C@@H](CC(C)C)C(=O)N[C@H](C(=O)N[C@@H](CCCNC(=N)N)C(=O)NCC(=O)N[C@@H](CCCNC(=N)N)C(=O)NCC(=O)O)C(C)C,refers to: Diarrhoea,type 2 diabetes patients,dose not given,baseline: subjects,20

# A few entries again:
Structure (SMILES),test,test system,setting,how to read,adverse event incidence [%]
O=C1CCc2ccc(OCCCCN3CCN(c4cccc(Cl)c4Cl)CC3)cc2N1,refers to: Akathisia,"patients, CYP2D6 ultrarapid metabolizers","dose not given, long-acting oral or depot",,13
